# Experimental data gathered from unrelated publications.
# A part holds a random share of what one study measured. Positions count from the first letter of the parent shown.
# UniProt O60674, sequence (whole entry, looked up): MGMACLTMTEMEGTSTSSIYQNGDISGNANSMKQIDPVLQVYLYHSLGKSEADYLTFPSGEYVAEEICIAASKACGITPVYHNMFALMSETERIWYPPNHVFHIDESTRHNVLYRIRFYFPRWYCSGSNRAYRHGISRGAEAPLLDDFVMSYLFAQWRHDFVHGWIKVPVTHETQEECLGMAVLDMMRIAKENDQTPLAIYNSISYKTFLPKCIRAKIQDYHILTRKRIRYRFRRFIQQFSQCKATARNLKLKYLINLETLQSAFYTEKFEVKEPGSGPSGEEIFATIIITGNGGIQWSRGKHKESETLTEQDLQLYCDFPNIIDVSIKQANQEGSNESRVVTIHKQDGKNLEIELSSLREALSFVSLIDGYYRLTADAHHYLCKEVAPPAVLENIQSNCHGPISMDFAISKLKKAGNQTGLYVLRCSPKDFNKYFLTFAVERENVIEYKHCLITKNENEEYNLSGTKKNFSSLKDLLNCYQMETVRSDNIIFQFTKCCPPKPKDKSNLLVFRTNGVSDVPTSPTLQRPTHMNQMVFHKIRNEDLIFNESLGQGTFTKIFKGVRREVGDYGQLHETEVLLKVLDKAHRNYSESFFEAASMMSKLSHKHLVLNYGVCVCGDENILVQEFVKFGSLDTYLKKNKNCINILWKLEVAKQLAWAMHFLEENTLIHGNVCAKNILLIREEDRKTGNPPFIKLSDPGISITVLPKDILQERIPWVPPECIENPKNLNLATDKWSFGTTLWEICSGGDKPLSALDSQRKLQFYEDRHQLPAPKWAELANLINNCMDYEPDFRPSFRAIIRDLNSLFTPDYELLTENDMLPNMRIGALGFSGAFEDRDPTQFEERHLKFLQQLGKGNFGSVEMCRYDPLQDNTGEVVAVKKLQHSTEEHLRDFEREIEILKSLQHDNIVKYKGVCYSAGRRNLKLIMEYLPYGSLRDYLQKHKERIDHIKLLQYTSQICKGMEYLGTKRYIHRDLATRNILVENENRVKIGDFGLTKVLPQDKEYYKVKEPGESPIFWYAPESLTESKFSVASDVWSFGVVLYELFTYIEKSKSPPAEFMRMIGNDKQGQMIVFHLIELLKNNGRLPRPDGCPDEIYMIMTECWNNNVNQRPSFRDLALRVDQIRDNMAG

# Study 1 — Change: F66L; method: DHFR PCA, deep sequencing; medium: yeast; baseline: wild-type fitted maximum; direction: higher = stronger binding
# Target: ABI1, truncated, D143A, DHFR fusion (Arabidopsis thaliana)
# Notes: methotrexate growth selection, single substitutions
# Starting sequence: PYL1, truncated, DHFR fusion (Arabidopsis thaliana); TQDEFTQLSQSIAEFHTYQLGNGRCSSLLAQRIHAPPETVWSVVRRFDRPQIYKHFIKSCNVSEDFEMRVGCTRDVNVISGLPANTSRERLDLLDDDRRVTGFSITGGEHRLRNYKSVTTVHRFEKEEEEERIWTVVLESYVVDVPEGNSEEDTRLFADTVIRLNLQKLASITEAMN
with,relative binding score [%]
(+)-ABA 200 µM,92.4
(+)-ABA 58 µM,72.3
(+)-ABA 4.8 µM,39.8
(+)-ABA 710 µM,94.3
(+)-ABA 17 µM,60.3
(+)-ABA 0.0091 µM,-1.25

# Study 2 — method: protein-binding microarray; molecule type: hairpin DNA; medium: in vitro; tested at: not given; baseline: not given; direction: higher = stronger binding; all sequences stand within: GAGGCCAT … ATGGCCTCACACTC
# Target: GDNF-inducible zinc finger protein 1, full length (GZF1, Homo sapiens, UniProt Q9H116, residues 1-711)
# Notes: whole hairpin DNA, median over replicate spots
# Residues (chain): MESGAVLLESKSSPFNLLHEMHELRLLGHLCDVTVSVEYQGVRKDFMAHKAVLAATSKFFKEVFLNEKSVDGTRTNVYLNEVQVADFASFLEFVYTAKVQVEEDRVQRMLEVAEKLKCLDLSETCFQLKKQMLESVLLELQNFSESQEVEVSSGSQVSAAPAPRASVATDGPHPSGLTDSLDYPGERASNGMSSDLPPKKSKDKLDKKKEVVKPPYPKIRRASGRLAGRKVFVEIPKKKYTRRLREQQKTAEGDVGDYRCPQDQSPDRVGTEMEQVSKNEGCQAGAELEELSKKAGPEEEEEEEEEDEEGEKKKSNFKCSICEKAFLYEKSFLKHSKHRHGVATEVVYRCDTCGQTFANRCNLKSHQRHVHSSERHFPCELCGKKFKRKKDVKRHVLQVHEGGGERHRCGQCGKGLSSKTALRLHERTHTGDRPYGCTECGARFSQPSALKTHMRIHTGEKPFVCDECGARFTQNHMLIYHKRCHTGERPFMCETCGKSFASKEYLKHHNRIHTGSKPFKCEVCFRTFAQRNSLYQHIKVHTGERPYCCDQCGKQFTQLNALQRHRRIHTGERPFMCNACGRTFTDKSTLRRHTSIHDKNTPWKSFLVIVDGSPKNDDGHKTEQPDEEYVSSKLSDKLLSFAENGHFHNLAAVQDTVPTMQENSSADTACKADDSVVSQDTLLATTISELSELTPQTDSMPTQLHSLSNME
Oligonucleotide,median fluorescence [a.u.]
TGCGGTAATGCCTCCTGGCATTACCGCA,627
CACGGTAATGCCTCCTGGCATTACCGTG,641
GACGGTAATGCCTCCTGGCATTACCGTC (5mC at 36),642
TACGCGAATGCCTCCTGGCATTCGCGTA (5mC at 13),521
CGCGGTAATGCCTCCTGGCATTACCGCG (5mC at 9),713
TCGGGTAATGCCTCCTGGCATTACCCGA (5mC at 10 34),443
TGCGGTAATGCCTCCTGGCATTACCGCA (5mC at 35),623
GACGGTAATGCCTCCTGGCATTACCGTC,641

# Study 3 — method: protein binding microarray; molecule type: double-stranded DNA, one strand shown; medium: in vitro; tested at: not given; baseline: not given; direction: higher = stronger binding
# Target: Histone acetyltransferase KAT6A, both winged helices, GST fusion (KAT6A, Homo sapiens, UniProt Q92794, residues 1-181)
# Notes: 8-mer, flanks averaged, mean of 2 arrays, mostly near background
# Target sequence (chain): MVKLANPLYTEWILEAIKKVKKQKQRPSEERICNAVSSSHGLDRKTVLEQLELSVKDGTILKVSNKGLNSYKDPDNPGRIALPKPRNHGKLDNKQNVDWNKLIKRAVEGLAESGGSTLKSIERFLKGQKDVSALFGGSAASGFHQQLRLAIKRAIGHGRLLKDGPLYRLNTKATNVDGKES
Oligonucleotide,E-score
ACGTCCTC,-0.126
GACTTGGA,-0.151
GGGGACTA,-0.136
AATTTCAC,-0.163
TCCCTCGA,-0.0749
CTCGTCTC,-0.0121
AAACCACC,-0.0953
CGTTGTCC,0.00103

# Mixed results
SMILES,target,effect on,action,tested at,baseline,quantity,value
CC(=O)c1ccc(N2CCOCC2)cc1O,"Tyrosine-protein kinase JAK2 (JAK2, Homo sapiens, UniProt O60674)",enzyme activity,inhibitor,0.5 µM,control,remaining activity,93.6%

# For quick reference, copied from above (mixed results):
SMILES,target,effect on,action,tested at,baseline,quantity,value
CC(=O)c1ccc(N2CCOCC2)cc1O,"Tyrosine-protein kinase JAK2 (JAK2, Homo sapiens, UniProt O60674)",enzyme activity,inhibitor,0.5 µM,control,remaining activity,93.6%
